Measurements from different studies.
Protocols differ between the studies behind these lines. ± gives the spread as reported. Converted amounts (≈) assume the structure as drawn.

The elimination half-life of `CC(C)C[C@H](NC(=O)[C@H](CCc1ccccc1)NC(=O)CN1CCOCC1)C(=O)N[C@@H](Cc1ccccc1)C(=O)N[C@@H](CC(C)C)C(=O)[C@@]1(C)CO1` is reported as 0.58 ± 0.26 h (human patients, plasma; intravenous infusion 10 min, 20 mg/m^2, day 1 of cycle 1, KRd regimen).
`Cn1c(-c2ccc(C(N)=O)cc2F)nnc1C(C)(C)Oc1c(F)cc(Cl)cc1F` has a half-life range of 14.5 to 44.8 h (healthy young Japanese subjects, plasma; oral, 20 mg once daily, day 18, 14 days dosing).
The trough concentration of `C[C@@H](c1ncncc1F)[C@](O)(Cn1cncn1)c1ccc(F)cc1F` is reported as 2960 ng/mL (patients, hematological disorders, CYP2C19 IM with PPI or PM without PPI, plasma; 200 mg, 12 h, steady state, median, combined score 4).
For `CCCC[C@H](NC(=O)CN1CCN(CC(=O)O)CCN(CC(=O)O)CCN(CC(=O)O)CC1)C(=O)N[C@H]1CC(=O)NCCCC[C@@H](C(N)=O)NC(=O)[C@H](Cc2c[nH]c3ccccc23)NC(=O)[C@H](CCCNC(=N)N)NC(=O)[C@@H](Cc2ccccc2)NC(=O)[C@H](Cc2c[nH]cn2)NC1=O` [indium-111 labelled], the urinary excretion was 76.8 ± 5.35% (B16/F1 melanoma-bearing C57 mouse, female; intravenous, dose not given, 2 h, together with: L-lysine co-injection).
`Cc1nc2cccc(OCC(C)(C)C(=O)NC(C)C)c2c(N)c1C(=O)O` gave an AUC(0-24 h) of 1170 ng·h/mL (female Sprague-Dawley rat, plasma; oral food admix, 100 mg/kg/day, day 7, 90-day dietary study).
The Tmax of `CCCC[C@H](NC(C)=O)C(=O)N[C@H]1CCC(=O)NC[C@@H](C(=O)N[C@@H](Cc2c[nH]c3ccccc23)C(N)=O)NC(=O)[C@H](CCCNC(=N)N)NC(=O)[C@@H](Cc2ccccc2)NC(=O)[C@H](Cc2c[nH]cn2)NC1=O` is reported as 1.3 h (beagle dog, female, plasma; subcutaneous, 1.5 mg/kg daily, day 1).
The Vd/F of `CCN(CC)Cc1cc(Nc2ccnc3cc(Cl)ccc23)ccc1O` is reported as 33.9 ± 11.1 L/kg (Wistar rat, male, plasma; oral, 60 mg/kg, together with: myricetin 5 mg/kg i.v. pretreatment).
The trough concentration of `COc1cc(Nc2ncc3c(n2)-c2ccc(Cl)cc2C(c2c(F)cccc2OC)=NC3)ccc1C(=O)O` is reported as 810 ± 430 nM (children, UGT1A1 extensive metabolizers, no grade ≥2 toxicity, plasma; oral, 80 mg/m2, day 4).
Under “amount excreted in urine”, `CN(C)C(=O)c1cc2cnc(Nc3ccc(N4CCNCC4)cn3)nc2n1C1CCCC1` is recorded as 20.2 mg (human, normal renal function, urine; oral, 400 mg single dose, 0 to 144 h).
The kinetic solubility of `O=C1Nc2ccc(C(=O)N3CCOCC3)cc2C(=O)CCc2ccccc21` is reported as greater than 100 µg/mL (nephelometry; aqueous buffer; 30 min, pH 6.5).
The AUC(0-t) of `C#C[C@]1(CO)O[C@@H](n2cnc3c(N)nc(F)nc32)C[C@@H]1O` is reported as 47.2 µM·h (human, plasma; oral, 400 mg, single dose, fasted).
For `CS(=O)(=O)Nc1ccc(C(=O)O[C@@H](Cc2c(Cl)c[n+]([O-])cc2Cl)c2ccc(OC(F)F)c(OCC3CC3)c2)cc1OCC1CC1`, the tmax was 2 h (human, plasma; inhaled, 1600 µg once daily, day 7, single-dose dry powder inhaler).
`CC(=O)c1nn(CC(=O)N2C[C@H](F)C[C@H]2C(=O)Nc2cccc(Br)n2)c2ccc(-c3cnc(C)nc3)cc12`: “sustained exposure duration” 240 h (Dutch Belted rabbits, choroid/RPE and retina; oral, 7.5 to 50 mg/kg twice daily, 15 days).
`CC(C)[C@H](N)C(=O)OCC1(CO)C/C1=C/n1cnc2c(=O)[nH]c(N)nc21.Cl` (mixture of isomers) gave a C0 of 263 ng/mL (measured: prodrug; Swiss-Webster mouse (male), plasma; intravenous, 24.6 mg/kg, one-compartment model).
The haemolysis of `C=CC(=C)CC[C@]1(C)[C@H](C)C[C@H](OC)[C@@]23C(=C[C@H](OC(=O)C(C)C)C[C@@H]12)[C@@H](OC(C)=O)O[C@H]3OC(C)=O` is reported as 16.5% (haemolysis; 100 µM).
`CCCCN1CCCCC1C(=O)Nc1c(C)cccc1C` (centres unmarked) — result for “EEG delta power increase”: no less than 7 fold (convulsant; TASK knockout mouse; intravenous, 3.75, 5 and 6.25 mg/kg, 15 s, ≤5 Hz, peak seizure; relative to: baseline).
For `CC(C)NC[C@@H](C(=O)N1CCN(c2ncnc3c2[C@H](C)C[C@H]3O)CC1)c1ccc(Cl)cc1`, the AUC(0-t) was 843 ng·h/mL (human, hepatic impairment Severe (Child-Pugh), plasma; oral, 100 mg single, geometric mean).
`colistin methanesulfonate`: “volume of distribution” 0.199 ± 0.0846 L/kg (one-compartment PK model; rat; i.p., 20 mg/kg colistin base activity).
For `Oc1ccc(C(c2ccc(O)cc2)(C(F)(F)F)C(F)(F)F)cc1`, “elimination (k10) half-life” read 0.439 h (female Hsd:Sprague Dawley rats, plasma; intravenous, 34 mg/kg, free compound).
`CC#CCn1c(N2CCC[C@@H](N)C2)nc2c1c(=O)n(Cc1nc(C)c3ccccc3n1)c(=O)n2C` gave an AUC of 19700 ng·h/mL (male ICR mouse, liver; oral, 3 mg/kg, 24 h).
The plasma concentration of `C[C@H](Oc1ccc(-c2nc(-c3ccc4[nH]cnc4c3)no2)cc1C(F)(F)F)C(F)(F)F` is reported as 13 ± 2.1 nM (cynomolgus monkey, aneurysm model, plasma; 0.1 mg/kg once daily, 2 h post-dose, 12 months dosing).
For `CCCC[C@@H]1NC(=O)[C@@H](NC(=O)[C@H](CCC(=O)O)NC(=O)CNC(=O)CN2CCN(CC(=O)O)CCN(CC(=O)O)CCN(CC(=O)O)CC2)CCCCNC(=O)C[C@@H](C(N)=O)NC(=O)[C@H](C(C)C)NC(=O)[C@@H]2CCCN2C(=O)[C@H](CCCNC(=N)N)NC(=O)CNC(=O)[C@H](Cc2c[nH]c3ccccc23)NC(=O)[C@H](CCCNC(=N)N)NC(=O)[C@@H](Cc2ccccc2)NC(=O)[C@H](Cc2c[nH]cn2)NC(=O)[C@H](CCC(=O)O)NC1=O` [indium-111 labelled], the tissue uptake was 0.04 ± 0.03 %ID/g (C57 mice, B16/F10 lung metastatic melanoma, spleen; intravenous, 0.037 MBq, 24 h).
For `CS(=O)(=O)n1cc2c(n1)CN([C@H]1CO[C@H](c3cc(F)ccc3F)[C@@H](N)C1)C2`, “concentration at 168 h” read 51.5 nM (healthy male human, plasma; oral, 100 mg once weekly, day 1, fasted, geometric mean).
`COc1cccc2c1C(=O)c1c(O)c3c(c(O)c1C2=O)C[C@@](O)(C(C)=O)C[C@@H]3O[C@H]1C[C@H](N)[C@H](O)[C@H](C)O1` gave an elimination half-life of 2.01 ± 1.12 h (Sprague-Dawley rat, plasma; intravenous, 5 mg/kg).
For `CCn1c(=O)c2c(nc(/C=C/c3ccc(O)c(OC)c3)n2C)n(CC)c1=O`, “metabolite to parent AUClast ratio” read 0.0613 (healthy humans, plasma; oral, 40 mg, together with: rifampin 600 mg/day).
With `N#Cc1ccc2c(c1)CCC(=O)c1ccccc1NC2=O` the kinetic solubility was 25 to 50 µg/mL (≈ 90.5 to 181 µM) (nephelometry; aqueous buffer; 30 min, pH 6.5).
The free concentration of `O=S(=O)(c1cc(F)c(O)c2ncccc12)C1CCCC1` is reported as 19 nM (rat Sprague-Dawley male, plasma; oral, 10 mg/kg, 4 h).
The Vss/F of `CNC(=O)c1cccc2cc(Oc3ccnc4cc(OCC5(N)CC5)c(OC)cc34)ccc12` is reported as 55.8 ± 17.9 L (human; oral, 10 mg, cycle 1 day 15, multiple dose, intermittent arm).
`Cc1c2c(n(-c3ccc(Cl)cc3Cl)c1-c1ccc(OS(=O)(=O)CCC(F)(F)F)cc1)CCN(N1CCCCC1)C2=O` gave a plasma concentration of 560 nM (LC-MS/MS; cynomolgus monkey 1, plasma; intravenous infusion, 2.0 mg/kg, 90 min, total concentration mid-point of PET).
`CCCCCCCCCCCCCCCCCCOP(=O)([O-])OC1CC[N+](C)(C)CC1` gave a terminal half-life of greater than 240 h (rhesus monkey, male, cerebrospinal fluid; oral, 7 mg/kg, single dose).
The maximum hemolysis of `CC12CCC(CC1=O)C2(C)C` (centres unmarked) is reported as less than 14% (human red blood cells; 10 to 300 µg/mL, 30 min).
With `N=C(N)NC(=O)c1cnn(-c2cccc3ncccc23)c1C1CC1` the CLint was 4.8 ± 0.685 mL/min/kg (human liver S9; 1 µM, together with: hydralazine 50 µM, no NADPH).
`O=C(c1cc(Cc2n[nH]c(=O)c3ccccc23)ccc1F)N1CCN(C(=O)C2CC2)CC1` gave a Cmin of 3600 ± 2200 ng/mL (cancer patients; oral, 400 mg twice daily, day 8, together with: pegylated liposomal doxorubicin).
`CCCOc1ccc([C@H]2CNC(=O)N2c2ccc3[nH]cnc3c2)cc1` has an AUC(0-12h) of 413 ng·h/mL (non-elderly adults, fasted, plasma; oral, 50 mg twice daily, day 11, oral solution, geometric mean).
For `C[C@]12CC[C@@H]3c4ccc(O)cc4CC[C@H]3[C@@H]1C[C@@H](O)[C@@H]2O`, “median serum concentration” read 0 ng/mL (GC-MS; breast cancer women on NSAI, serum; vaginal, 0.03 mg daily, 24 h, day 28).
`CNc1nc(Nc2ccc(-n3cnc(C)n3)c(OC)c2)nc2c1CC[C@H]2c1ccc(F)cc1` has an AUC(0-t) of 128 ng·h/mL (human, plasma; oral, 10 mg, single dose, healthy volunteers).
Under “elimination rate constant”, `COc1cccc(N2CCN(C3=Nc4c(F)cccc4[C@H](CC(=O)O)N3c3cc(C(F)(F)F)ccc3OC)CC2)c1` is recorded as 1.84e-05 ± 5.92e-06 s⁻¹ (UHPLC-MS/MS; healthy women, plasma; intravenous infusion, 720 mg single dose, 60 min infusion, HPβCD formulation).
`COc1cc(OC)c(/C=C/S(=O)(=O)Cc2ccc(OC)c(NCC(=O)O)c2)c(OC)c1` gave a Tmax of 1 ± 0.35 h (cancer patients, phase I, plasma; oral, 280 mg twice daily, day 1 cycle 1).

Excerpt of the above:
`CC(C)[C@H](N)C(=O)OCC1(CO)C/C1=C/n1cnc2c(=O)[nH]c(N)nc21.Cl` (mixture of isomers) gave a C0 of 263 ng/mL (measured: prodrug; Swiss-Webster mouse (male), plasma; intravenous, 24.6 mg/kg, one-compartment model).
The haemolysis of `C=CC(=C)CC[C@]1(C)[C@H](C)C[C@H](OC)[C@@]23C(=C[C@H](OC(=O)C(C)C)C[C@@H]12)[C@@H](OC(C)=O)O[C@H]3OC(C)=O` is reported as 16.5% (haemolysis; 100 µM).
`CCCCN1CCCCC1C(=O)Nc1c(C)cccc1C` (centres unmarked) — result for “EEG delta power increase”: no less than 7 fold (convulsant; TASK knockout mouse; intravenous, 3.75, 5 and 6.25 mg/kg, 15 s, ≤5 Hz, peak seizure; relative to: baseline).
For `CC(C)NC[C@@H](C(=O)N1CCN(c2ncnc3c2[C@H](C)C[C@H]3O)CC1)c1ccc(Cl)cc1`, the AUC(0-t) was 843 ng·h/mL (human, hepatic impairment Severe (Child-Pugh), plasma; oral, 100 mg single, geometric mean).
